Results from different studies.
Numbered parts are unrelated; each lists some results of a single study.

Block 1 — cell line: HEK-293T/ACE2; concentration: concentration not given; time: 16 (unit not given); relative to: vehicle; endpoint: viability
Compound = Cc1cnc(C(=O)N[C@H]2CCCCC/C=C\[C@@H]3C[C@@]3(C(=O)NS(=O)(=O)C3CC3)NC(=O)[C@@H]3C[C@@H](Oc4nc5ccccc5c5ccccc45)CN3C2=O)cn1; result = 97.4%
Compound = Clc1ccc(C(Cn2ccnc2)OCc2csc3c(Cl)cccc23)c(Cl)c1 (stereo not drawn); result = 96.7%
Compound = COc1c(C)c2c(c(O)c1C/C=C(\C)CCC(=O)O)C(=O)OC2; result = 93.3%
Compound = CCN(CC)CCNC(=O)c1c(C)[nH]c(/C=C2\C(=O)Nc3ccc(F)cc32)c1C; result = 102%
Compound = CC(=O)O[C@H]1CC[C@@]2(C)C(=CC[C@@H]3[C@@H]2CC[C@]2(C)C(c4cccnc4)=CC[C@@H]32)C1; result = 102%

Block 2 — method: universal PBM; molecule type: double-stranded DNA, one strand shown; medium: in vitro; concentration: 600 nM; reading: higher = stronger binding; endpoint: E-score
Target: Sal-like protein 4, full length isoform A (SALL4, Homo sapiens, UniProt Q9UJQ4, residues 1-1053)
Sequence of UniProt Q9UJQ4 (whole entry, looked up): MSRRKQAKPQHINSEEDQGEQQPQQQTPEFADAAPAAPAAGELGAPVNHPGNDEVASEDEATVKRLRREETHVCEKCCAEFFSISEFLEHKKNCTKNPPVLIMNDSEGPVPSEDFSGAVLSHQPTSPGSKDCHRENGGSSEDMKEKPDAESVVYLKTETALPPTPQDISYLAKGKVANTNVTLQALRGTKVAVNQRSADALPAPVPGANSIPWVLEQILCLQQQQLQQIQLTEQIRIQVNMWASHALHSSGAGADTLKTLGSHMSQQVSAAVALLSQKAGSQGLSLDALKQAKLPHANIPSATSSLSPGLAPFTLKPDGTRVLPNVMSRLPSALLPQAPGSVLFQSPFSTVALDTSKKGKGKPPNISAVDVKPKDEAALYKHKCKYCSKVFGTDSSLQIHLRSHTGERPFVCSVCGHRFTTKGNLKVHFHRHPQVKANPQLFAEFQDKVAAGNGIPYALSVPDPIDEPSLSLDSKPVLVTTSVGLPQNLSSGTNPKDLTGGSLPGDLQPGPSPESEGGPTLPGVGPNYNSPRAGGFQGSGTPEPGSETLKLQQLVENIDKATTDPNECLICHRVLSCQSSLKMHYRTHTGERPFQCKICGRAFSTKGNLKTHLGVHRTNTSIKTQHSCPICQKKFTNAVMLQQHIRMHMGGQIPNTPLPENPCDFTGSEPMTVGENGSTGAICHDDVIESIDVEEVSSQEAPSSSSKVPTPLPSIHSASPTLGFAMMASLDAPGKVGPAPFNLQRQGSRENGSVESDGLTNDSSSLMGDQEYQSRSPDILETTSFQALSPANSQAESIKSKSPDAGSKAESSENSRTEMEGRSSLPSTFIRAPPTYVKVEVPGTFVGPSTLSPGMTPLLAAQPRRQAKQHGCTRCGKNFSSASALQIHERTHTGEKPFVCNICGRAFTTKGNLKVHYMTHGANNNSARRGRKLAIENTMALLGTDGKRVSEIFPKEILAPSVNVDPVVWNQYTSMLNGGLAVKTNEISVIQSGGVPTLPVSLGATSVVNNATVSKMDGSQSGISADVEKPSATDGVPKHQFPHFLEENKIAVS
Setting: 8-mer, flanks averaged, mean of replicates
Sequence = GCATGAGA; result = 0.00686
Sequence = AGTTGCTG; result = -0.155
Sequence = TAGGTCAA; result = 0.149
Sequence = TACCGCAA; result = 0.0813
Sequence = TCAGTGCA; result = -0.0159
Sequence = GCAGGTTA; result = -0.0879
Sequence = GGGAAACC; result = -0.168
Sequence = AGCAGGGA; result = -0.194

Block 3 — method: RNA Bind-n-Seq; molecule type: RNA; medium: in vitro; concentration: 1 µM; setting: whole 134-nt RNA, ends assumed; added: 150 mM KCl; relative to: input library; reading: higher = stronger binding; endpoint: log2 enrichment
Target: Ras GTPase-activating protein-binding protein 1, RRM domain (G3BP1, Homo sapiens, UniProt Q13283)
Sequence of UniProt Q13283 (whole entry, looked up): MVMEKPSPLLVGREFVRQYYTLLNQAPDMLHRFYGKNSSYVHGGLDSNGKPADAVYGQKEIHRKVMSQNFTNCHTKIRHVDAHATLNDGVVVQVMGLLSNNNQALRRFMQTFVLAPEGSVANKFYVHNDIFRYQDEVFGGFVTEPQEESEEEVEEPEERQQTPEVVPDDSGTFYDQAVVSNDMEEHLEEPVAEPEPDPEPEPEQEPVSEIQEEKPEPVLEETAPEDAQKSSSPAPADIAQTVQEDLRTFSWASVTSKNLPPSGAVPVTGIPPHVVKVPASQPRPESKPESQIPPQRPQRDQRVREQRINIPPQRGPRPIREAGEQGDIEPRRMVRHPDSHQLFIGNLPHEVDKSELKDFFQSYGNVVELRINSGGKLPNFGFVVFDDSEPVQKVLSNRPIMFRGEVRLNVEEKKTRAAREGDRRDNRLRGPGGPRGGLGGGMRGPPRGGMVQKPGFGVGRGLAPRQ
All sequences stand within: GGGAGUUCUACAGUCCGACGAUC … UGGAAUUCUCGGGUGUCAAGG
Sequence = GCAGGAAGUAAAAACAAAUGGAAAUGCUUCGGAUAGUGGCAGGGGUGGGGGUUGCUAAGGGAAGGGUGGGAUGGGAGUGGGUAAAGAGUU; result = 1.74
Sequence = UGGCCCUGGUGGCAUGCGGGGAGGAAGAGGUGGCCUCAUGGAUCGUGGUGGUCCCGGUGGAAUGUUCAGAGGUGACCGUGGUGGAGACAG; result = 1.06
Sequence = AGUCCUGUGCUACACAUCGUAUGUACCGAAUCGGGUUUGGGUUUUUUUGGGUUUGGGAAAGUAUUAUGUUACGCCGUUCGGAUCUGCACU; result = 0.375
Sequence = AGUCCUGUGCUACACAUCGUAUGUACCGAAUCGGGGAGGGGUUUUUUUGGGGUGGGGAAAGUAUUAUGUUACGCCGUUCGGAUCUGCACU; result = 0.563
Sequence = CACAGACAACACGCACCCACACAGACAAAAAGGGAAGGGGUUGGGAUGGGGACAGGGUGCACAGCAGGGCGGGGUAGGACCCCAGCCCCU; result = -0.16
Sequence = AAGUCCUGUGCUACACAUCGUAUGUACCGAAUCGGGUUUGGGGUUUGGGUUUGGGGAAAGUAUUAUGUUACGCCGUUCGGAUCUGCACUU; result = 0.612
Sequence = AGUCCUGUGCUACACAUCGUAUGUACCGAAUCGGGAAAAAGGGUUUUUUUGGGAGGGAAAGUAUUAUGUUACGCCGUUCGGAUCUGCACU; result = 0.549
Sequence = CACAGACAACACGCACCCACACAGACACAGAGGGAAAAAGUUGGGAUGGGGACAGGGUGCACAGCAGGGCGGGGUAGGACCCCAGCCCCU; result = -0.204

Block 4 — observed: enzyme activity; action: inhibitor; concentration: 20 µM; setting: hit confirmation, no DTT; endpoint: inhibition
Target: Replicase polyprotein 1ab, main protease (rep, Severe acute respiratory syndrome coronavirus 2, UniProt P0DTD1)
Compound = CC(C)N(CCC(=O)c1ccc2ccccc2c1)Cc1ccccc1; result = 78.2%
Compound = CCCCCCNC(=O)n1cc(F)c(=O)[nH]c1=O; result = 111%
Compound = O=C1OC2(c3cc(I)c(O)c(I)c3Oc3c2cc(I)c(O)c3I)c2c(Cl)c(Cl)c(Cl)c(Cl)c21; result = 86.4%

Block 5 — method: RNA Bind-n-Seq; molecule type: RNA; medium: in vitro; concentration: not given; relative to: input RNA pool; reading: higher = stronger binding; endpoint: bound/input enrichment
Target: RING finger protein unkempt homolog, zinc fingers 1-6, GST-SBP tag (UNK, Homo sapiens, UniProt Q9C0B0, residues 30-357)
Sequence of UniProt Q9C0B0 (30-357, looked up): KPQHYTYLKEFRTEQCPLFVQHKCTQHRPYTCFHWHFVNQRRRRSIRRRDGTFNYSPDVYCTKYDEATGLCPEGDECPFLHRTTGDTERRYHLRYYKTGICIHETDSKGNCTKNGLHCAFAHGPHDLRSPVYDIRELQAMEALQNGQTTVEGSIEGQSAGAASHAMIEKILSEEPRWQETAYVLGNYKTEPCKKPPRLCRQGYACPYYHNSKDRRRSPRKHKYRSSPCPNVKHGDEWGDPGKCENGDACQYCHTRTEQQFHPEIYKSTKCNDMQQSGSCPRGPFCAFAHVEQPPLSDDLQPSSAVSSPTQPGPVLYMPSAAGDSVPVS
Setting: RNA with constant flanks, human-mouse chimeric sites, ends assumed
All sequences stand within: GGGAGUUCUACAGUCCGACGAUC … CAACAGAGGAUUGAGCAUCA
Sequence = ACAGUUAUAUUGUUGAGGUUUGUAUUUAUAUAUUCUUGUAGUGUCUGCUUGCCUGUGACUUCUGGUAAAAUAAAAUAAGCCUUUGAAAAUAUUUUAGAUUUAACAUUAACAUUUUCUAAA; result = 4.67 ratio
Sequence = CCCCAAUACCAUUUGCAGGUCUGGAACUGCACUCUCUUUUUUAAAAAACAUGUAUACAUUUUAGGGCUGUAGAUUUAUUUUCCUGGUUUUGUUUUUCUUGCUUAUUCUUGAGCACAAGAA; result = 2.73 ratio
Sequence = UGGCGCCUGCGCUCCCCACUCGUGUUUUUAAGUGUAUUUUUAUAAGAUACAUGUAUUUACAAUUGAGUUUUUGAUUAAUAAUGCUGAAAUGCUACUGGAGAUUAUGAAAAAAUGUUAAAU; result = 0.254 ratio
Sequence = AAAGAGAAACUAAAGCAACUAAUAGAGAAGAGGAUUGGCAAAGAGAAUUUCAUAGAGGAAACUAGGAUUAUUAGCAAACAUGAGUUAUAUUCCAGAGGCAUCUCAGAACCCCAGCCAAAC; result = 5.34 ratio
Sequence = GAGCGUCUUGCCCGCACUGGGAUCAUCGUGACCACGAGUGAGGCUGUCCUCCUACAGCUGGUAGCUGACAAAGACCACCCGAAGUUCAAGGAAAUUCAGAACCUAAUUAAGGCGAGUGCC; result = 0.152 ratio
Sequence = GCAGGAUCUUCUAAAUACCAGUGGGACAUUAUGAAAUCCCUUGGCCUCUCUGAUGACGACAUAGUGAAGUUUUCUGAAGCAGAGCACUGGCUUGAUUAUUUCCCACCACUGGCCGUUCAG; result = 0.187 ratio
Sequence = AGUGUGCAGGAAUUCAUGACCUUUACAAGUCAACUGAUUGUGGAACGCUCGGGGAAAGGCAGCAGAGCUUCUGUCAAAGAACAAGAGUAUCUGUGCCACGUCUACGUCCGGAGCGACAGU; result = 0.0833 ratio
Sequence = UUACCCGAGAACGAGGAUGAGCUGGAGAGCACCAAUAGGCGCUACACCAAGAGGGACUGCAGCACUUUUCUCAGAACUAGUGAGACGGGCAUCGUGGACCAGGUCAUGGUCACUCUCAAC; result = 0.275 ratio

Block 6 — action: inhibitor; concentration: 20 µM; endpoint: inhibition
Target: Replicase polyprotein 1ab, nsp13 helicase (rep, Severe acute respiratory syndrome coronavirus 2, UniProt P0DTD1)
SMILES = N#Cc1ccc(N2CCN(C(=O)COc3ccc4[nH]cc(CCN)c4c3)CC2)cc1; result = 5.15%
SMILES = C#C[C@]1(O)CC[C@H]2[C@@H]3CCC4=CC(=O)CC[C@@H]4[C@H]3C(=C)C[C@@]21CC; result = -0.97%
SMILES = Fc1cc(-c2cccc3ncc(-c4cnn(C5CCNCC5)c4)nc23)cc(F)c1CN1CCOCC1; result = 36.2%
SMILES = CC(C)CC(=O)N[C@H](C(=O)N[C@H](C(=O)N[C@@H](CC(C)C)[C@@H](O)CC(=O)N[C@@H](C)C(=O)N[C@@H](CC(C)C)[C@@H](O)CC(=O)O)C(C)C)C(C)C; result = -2.09%
SMILES = O=C(O)CCCO; result = 2.79%
SMILES = CO[C@H]1CC[C@H](N2C(=O)CNc3ncc(-c4ccc(C(C)(C)O)nc4)nc32)CC1; result = 74.1%
SMILES = O=c1[nH]c(C2CCCN2)nc2c1oc1ccc(Cl)cc12 (stereo not drawn); result = 3.49%
SMILES = CC(=O)OCC(=O)[C@@]12N=C(C)O[C@@H]1C[C@H]1[C@@H]3CCC4=CC(=O)C=C[C@]4(C)[C@H]3[C@@H](O)C[C@@]12C; result = 9.44%
SMILES = CC(C)C(=O)OC[C@H]1O[C@@H](n2ccc(N)nc2=O)[C@](C)(F)[C@@H]1OC(=O)C(C)C; result = -2.07%
SMILES = CC[C@H]1OC(=O)[C@H](C)[C@@H](O[C@H]2C[C@@](C)(OC)[C@@H](O)[C@H](C)O2)[C@H](C)[C@@H](O[C@@H]2O[C@H](C)C[C@H](N(C)C)[C@H]2O)[C@](C)(O)C[C@@H](C)CN(C)[C@H](C)[C@@H](O)[C@]1(C)O; result = -1.46%
SMILES = Fc1cc(F)c2c(c1)[C@H]1C=CC[C@H]1C(c1cccnc1)N2 (mixture of isomers); result = 3.41%
SMILES = N[C@@H](C(=O)N[C@@H]1C(=O)N2C(C(=O)O)=C(Cl)CS[C@H]12)c1ccccc1; result = 24.8%
SMILES = O=[N+]([O-])c1ccc2c(c1)S(=O)(=O)C=C2; result = 18.1%
SMILES = CCCCCCCCCCCCCCCC(=O)OC[C@H](O)[C@H]1OC(=O)C(O)=C1O; result = 19.3%
SMILES = c1ccc(C2CNCc3ccccc32)cc1 (stereo not drawn); result = 4.66%
SMILES = CCc1oc2ccccc2c1C(=O)c1ccc(OCC(=O)O)cc1; result = 2.14%
SMILES = Cc1c(C(=O)N2CCOc3ccc(-c4ccc(N)nc4)cc3C2)ccc(S(C)(=O)=O)c1F; result = 4.42%
SMILES = N#Cc1ccccc1-c1cc(-c2ccccn2)cn(-c2ccccc2)c1=O; result = 3.42%
SMILES = CCCCn1c(=O)c2[nH]c(C34CC5CC(CC3C5)C4)nc2n(CCCO)c1=O; result = -0.82%
SMILES = COC(=O)Nc1nc2cc(C(=O)c3cccs3)ccc2[nH]1; result = 5.93%
SMILES = C=CC(=O)N1CCN(C(=O)CNc2cc(I)c(Cl)cc2O)CC1; result = 16%
SMILES = N#Cc1ccc(NCCNCC(=O)N2CCC[C@H]2C#N)nc1; result = -0.14%
SMILES = Cn1cc(-c2ccc3ncc(Cc4ccc5ncccc5c4)n3n2)cn1; result = 12.6%
SMILES = O=C1CCC[C@@H]2[C@H]3CCCN4CCC[C@@H](CN12)[C@@H]34; result = 6.28%
SMILES = CCCCNc1cc(C(=O)O)cc(S(N)(=O)=O)c1Oc1ccccc1; result = 11.9%

Some of these lines once more (block 6):
SMILES = C#C[C@]1(O)CC[C@H]2[C@@H]3CCC4=CC(=O)CC[C@@H]4[C@H]3C(=C)C[C@@]21CC; result = -0.97%
SMILES = Fc1cc(-c2cccc3ncc(-c4cnn(C5CCNCC5)c4)nc23)cc(F)c1CN1CCOCC1; result = 36.2%
SMILES = CC(C)CC(=O)N[C@H](C(=O)N[C@H](C(=O)N[C@@H](CC(C)C)[C@@H](O)CC(=O)N[C@@H](C)C(=O)N[C@@H](CC(C)C)[C@@H](O)CC(=O)O)C(C)C)C(C)C; result = -2.09%
SMILES = O=C(O)CCCO; result = 2.79%
